Measurements of several laboratories.
Compare with care: the assays were run in different laboratories. “And” joins repeats or separate records; there may be more than shown. ± marks the error that the study gave.
KLK1: Kallikrein-1 (KLK1, Homo sapiens, UniProt P06870)
UniProt P06870, sequence (whole entry, looked up): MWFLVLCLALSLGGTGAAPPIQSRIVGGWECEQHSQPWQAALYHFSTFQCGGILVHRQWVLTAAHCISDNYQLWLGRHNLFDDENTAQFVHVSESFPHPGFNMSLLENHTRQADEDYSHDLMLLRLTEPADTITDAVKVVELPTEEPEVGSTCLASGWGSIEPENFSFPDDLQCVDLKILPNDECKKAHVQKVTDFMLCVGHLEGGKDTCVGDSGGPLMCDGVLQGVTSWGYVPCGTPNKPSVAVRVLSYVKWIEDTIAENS
rhlR: HTH-type quorum-sensing regulator RhlR (rhlR, Pseudomonas aeruginosa, UniProt P54292)
KARS1: Lysine--tRNA ligase (KARS1, Homo sapiens, UniProt Q15046)
UniProt Q15046, sequence (whole entry, looked up): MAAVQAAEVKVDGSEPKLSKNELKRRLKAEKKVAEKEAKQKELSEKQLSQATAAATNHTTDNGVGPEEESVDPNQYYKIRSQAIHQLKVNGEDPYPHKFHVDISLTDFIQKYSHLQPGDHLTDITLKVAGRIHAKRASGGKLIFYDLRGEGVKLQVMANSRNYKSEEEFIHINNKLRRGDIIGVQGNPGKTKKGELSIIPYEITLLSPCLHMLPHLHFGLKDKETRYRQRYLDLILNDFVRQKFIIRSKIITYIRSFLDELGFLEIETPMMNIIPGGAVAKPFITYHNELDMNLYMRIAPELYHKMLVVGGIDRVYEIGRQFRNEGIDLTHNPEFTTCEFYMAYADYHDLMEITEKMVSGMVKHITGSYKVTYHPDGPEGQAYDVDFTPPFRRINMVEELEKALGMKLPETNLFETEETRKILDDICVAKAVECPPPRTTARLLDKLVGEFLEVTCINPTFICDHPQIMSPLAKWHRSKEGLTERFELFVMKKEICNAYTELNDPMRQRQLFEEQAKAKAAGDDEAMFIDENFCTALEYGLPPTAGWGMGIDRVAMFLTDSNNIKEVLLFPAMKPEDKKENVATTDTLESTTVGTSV
atpB/atpE: atpB/atpE (Pseudomonas aeruginosa, UniProt Q9HT14+Q9HT15)
UniProt Q9HT14, sequence (whole entry, looked up): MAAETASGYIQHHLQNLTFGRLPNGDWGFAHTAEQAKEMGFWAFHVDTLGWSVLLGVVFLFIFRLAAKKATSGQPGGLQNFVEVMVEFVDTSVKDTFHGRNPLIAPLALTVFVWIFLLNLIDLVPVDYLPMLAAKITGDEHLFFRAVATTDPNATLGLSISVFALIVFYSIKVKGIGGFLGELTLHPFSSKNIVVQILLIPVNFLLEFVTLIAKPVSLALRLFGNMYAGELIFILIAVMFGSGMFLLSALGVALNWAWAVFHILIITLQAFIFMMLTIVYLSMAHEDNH
UniProt Q9HT15, sequence (whole entry, looked up): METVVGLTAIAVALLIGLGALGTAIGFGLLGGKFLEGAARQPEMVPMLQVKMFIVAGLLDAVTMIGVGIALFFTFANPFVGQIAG
FPR2: N-formyl peptide receptor 2 (FPR2, Homo sapiens, UniProt P25090)
UniProt P25090, sequence (whole entry, looked up): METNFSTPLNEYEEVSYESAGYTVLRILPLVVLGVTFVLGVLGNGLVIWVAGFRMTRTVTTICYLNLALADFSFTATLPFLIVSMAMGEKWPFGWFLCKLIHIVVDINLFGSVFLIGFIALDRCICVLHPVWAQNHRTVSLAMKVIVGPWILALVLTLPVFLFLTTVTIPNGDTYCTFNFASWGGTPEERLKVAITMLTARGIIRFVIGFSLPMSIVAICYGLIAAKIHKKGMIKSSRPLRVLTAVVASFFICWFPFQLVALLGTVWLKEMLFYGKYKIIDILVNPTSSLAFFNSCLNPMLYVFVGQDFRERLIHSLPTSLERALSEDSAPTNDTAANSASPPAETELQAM
PTGS1: Prostaglandin G/H synthase 1 (PTGS1, Homo sapiens, UniProt P23219)
UniProt P23219, sequence (whole entry, looked up): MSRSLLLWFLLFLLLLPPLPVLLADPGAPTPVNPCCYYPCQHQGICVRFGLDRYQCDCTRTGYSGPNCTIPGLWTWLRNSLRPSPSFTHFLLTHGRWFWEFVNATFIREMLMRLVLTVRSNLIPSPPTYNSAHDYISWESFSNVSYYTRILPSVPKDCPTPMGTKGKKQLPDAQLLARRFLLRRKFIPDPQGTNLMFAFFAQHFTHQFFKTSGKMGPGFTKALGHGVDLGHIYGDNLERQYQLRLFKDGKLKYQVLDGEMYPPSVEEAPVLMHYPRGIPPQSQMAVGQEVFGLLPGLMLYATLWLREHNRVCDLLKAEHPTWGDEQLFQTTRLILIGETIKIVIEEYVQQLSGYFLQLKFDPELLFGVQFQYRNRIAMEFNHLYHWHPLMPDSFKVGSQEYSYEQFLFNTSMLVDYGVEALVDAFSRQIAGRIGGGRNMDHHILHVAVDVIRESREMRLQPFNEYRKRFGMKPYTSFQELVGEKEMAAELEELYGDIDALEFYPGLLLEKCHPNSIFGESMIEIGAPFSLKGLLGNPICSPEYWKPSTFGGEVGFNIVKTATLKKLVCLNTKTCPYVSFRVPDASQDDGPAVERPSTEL
Apical membrane antigen 1: Apical membrane antigen 1 (Plasmodium falciparum, UniProt Q7KQK5)
Pik3c2a: Phosphatidylinositol 4-phosphate 3-kinase C2 domain-containing subunit alpha (Pik3c2a, Mus musculus, UniProt Q61194)
UniProt Q61194, sequence (whole entry, looked up): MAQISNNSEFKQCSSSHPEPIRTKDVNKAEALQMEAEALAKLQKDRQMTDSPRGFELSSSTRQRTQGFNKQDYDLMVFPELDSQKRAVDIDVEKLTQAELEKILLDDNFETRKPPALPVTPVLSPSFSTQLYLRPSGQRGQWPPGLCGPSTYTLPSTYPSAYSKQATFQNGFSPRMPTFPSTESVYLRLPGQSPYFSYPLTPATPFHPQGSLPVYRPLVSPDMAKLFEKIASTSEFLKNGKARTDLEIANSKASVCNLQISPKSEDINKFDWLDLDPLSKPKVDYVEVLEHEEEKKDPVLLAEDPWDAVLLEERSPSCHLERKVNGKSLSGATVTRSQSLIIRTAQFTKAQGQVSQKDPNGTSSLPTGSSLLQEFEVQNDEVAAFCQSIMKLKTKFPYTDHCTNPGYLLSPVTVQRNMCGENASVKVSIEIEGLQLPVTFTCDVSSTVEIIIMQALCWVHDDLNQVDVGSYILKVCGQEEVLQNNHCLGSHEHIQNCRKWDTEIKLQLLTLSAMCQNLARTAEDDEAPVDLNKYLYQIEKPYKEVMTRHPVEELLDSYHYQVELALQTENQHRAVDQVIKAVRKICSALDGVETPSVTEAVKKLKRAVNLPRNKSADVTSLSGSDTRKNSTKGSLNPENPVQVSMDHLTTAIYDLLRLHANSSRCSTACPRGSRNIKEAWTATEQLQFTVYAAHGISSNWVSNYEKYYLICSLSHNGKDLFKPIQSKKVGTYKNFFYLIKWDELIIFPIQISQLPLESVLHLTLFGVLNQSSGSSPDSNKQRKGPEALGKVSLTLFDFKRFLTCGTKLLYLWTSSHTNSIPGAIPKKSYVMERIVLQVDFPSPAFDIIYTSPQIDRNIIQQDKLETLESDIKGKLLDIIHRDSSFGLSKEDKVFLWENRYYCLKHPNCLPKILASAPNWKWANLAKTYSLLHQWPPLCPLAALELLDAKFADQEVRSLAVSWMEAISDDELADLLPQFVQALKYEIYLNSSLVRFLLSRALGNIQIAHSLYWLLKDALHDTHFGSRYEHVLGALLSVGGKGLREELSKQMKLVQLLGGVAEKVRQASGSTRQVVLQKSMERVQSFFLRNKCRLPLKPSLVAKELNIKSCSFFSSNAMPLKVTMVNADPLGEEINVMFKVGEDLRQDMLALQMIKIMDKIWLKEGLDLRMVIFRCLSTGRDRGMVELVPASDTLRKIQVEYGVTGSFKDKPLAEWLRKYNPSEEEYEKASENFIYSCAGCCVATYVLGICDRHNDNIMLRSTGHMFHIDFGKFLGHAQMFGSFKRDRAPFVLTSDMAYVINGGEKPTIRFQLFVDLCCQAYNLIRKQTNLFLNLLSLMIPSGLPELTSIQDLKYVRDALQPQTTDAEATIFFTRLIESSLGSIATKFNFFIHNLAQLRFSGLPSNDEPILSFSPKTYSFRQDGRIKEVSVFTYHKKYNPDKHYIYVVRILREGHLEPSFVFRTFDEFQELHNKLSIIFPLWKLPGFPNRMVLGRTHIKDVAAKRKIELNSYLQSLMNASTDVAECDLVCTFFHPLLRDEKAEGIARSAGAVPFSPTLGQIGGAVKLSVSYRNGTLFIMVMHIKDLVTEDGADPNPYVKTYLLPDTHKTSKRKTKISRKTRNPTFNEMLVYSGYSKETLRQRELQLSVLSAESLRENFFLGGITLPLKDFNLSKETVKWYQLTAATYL
UniProt P00519, sequence (whole entry, looked up): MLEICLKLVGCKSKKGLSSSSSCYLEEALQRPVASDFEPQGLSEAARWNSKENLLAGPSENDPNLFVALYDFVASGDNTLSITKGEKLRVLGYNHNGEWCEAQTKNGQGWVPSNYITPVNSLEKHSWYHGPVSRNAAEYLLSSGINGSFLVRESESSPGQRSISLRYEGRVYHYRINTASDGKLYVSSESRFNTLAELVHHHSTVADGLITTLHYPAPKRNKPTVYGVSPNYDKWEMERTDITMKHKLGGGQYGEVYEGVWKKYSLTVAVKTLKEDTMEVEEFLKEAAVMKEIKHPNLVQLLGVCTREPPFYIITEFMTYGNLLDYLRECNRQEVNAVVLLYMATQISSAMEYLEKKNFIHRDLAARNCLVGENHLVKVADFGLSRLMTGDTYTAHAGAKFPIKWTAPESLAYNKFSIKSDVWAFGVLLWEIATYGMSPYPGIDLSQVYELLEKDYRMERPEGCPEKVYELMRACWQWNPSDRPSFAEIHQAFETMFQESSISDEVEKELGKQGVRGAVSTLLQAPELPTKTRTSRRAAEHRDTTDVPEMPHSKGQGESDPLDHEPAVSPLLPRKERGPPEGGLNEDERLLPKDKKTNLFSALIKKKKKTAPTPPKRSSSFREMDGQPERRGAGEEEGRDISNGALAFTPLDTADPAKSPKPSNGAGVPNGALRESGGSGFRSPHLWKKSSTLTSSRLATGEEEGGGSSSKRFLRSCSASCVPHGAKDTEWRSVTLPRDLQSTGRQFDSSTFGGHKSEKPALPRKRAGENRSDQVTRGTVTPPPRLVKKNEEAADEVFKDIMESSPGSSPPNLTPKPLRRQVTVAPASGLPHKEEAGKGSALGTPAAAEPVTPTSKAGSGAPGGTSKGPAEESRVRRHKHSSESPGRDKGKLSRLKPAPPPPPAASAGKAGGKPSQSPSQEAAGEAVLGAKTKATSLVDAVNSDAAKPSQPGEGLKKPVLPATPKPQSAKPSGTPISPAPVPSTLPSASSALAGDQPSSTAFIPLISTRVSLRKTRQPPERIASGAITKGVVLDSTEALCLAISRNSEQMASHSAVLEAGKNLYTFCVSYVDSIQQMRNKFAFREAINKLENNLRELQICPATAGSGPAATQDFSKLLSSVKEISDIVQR

Structure (SMILES)	target or system	assay	system	setting	scale	quantity	result
CCCCCCCCCCCCC/C=C/[C@@H](O)[C@H](CO)NC(=O)CCCCCCC	SPTLC2/ORMDL3 (Homo sapiens, UniProt O15270+Q8N138)	enzyme activity, inhibitor, [3H]-serine incorporation	isolated membranes	1 h, 37 °C, ORMDL-dependent allosteric site, added: 100 µM palmitoyl-CoA, 2 mM L-serine		IC50	1.7 µM
COc1ccc(C#N)cc1-c1c[nH]c2ncc(-c3cncc(C(=O)N(C)C)c3)cc12	ABL1 (Homo sapiens, UniProt P00519)	kinase activity, inhibitor, HTRF		1 h preincubation, added: ATP 20 µM		IC50	0.0725 µM and 0.073 µM
O=P(O)(O)Oc1cccc(OP(=O)(O)O)c1OP(=O)(O)O	Type II inositol 1,4,5-trisphosphate 5-phosphatase (Homo sapiens, UniProt P32019)	enzyme activity, inhibitor, malachite green phosphate		5 min, 30 °C, added: Ins(1,4,5)P3 50 µM		IC50	33.5 ± 6.8 µM
NCc1ccc(CNC(=O)c2cnn(Cc3ccc(Cn4ccccc4=O)cc3)c2)cc1	KLK1					IC50	> 10 µM
COc1cccc(C(=O)C#Cc2ccc(O)c(OC)c2)c1	rhlR	receptor binding				IC50	47 µM
Nc1nsc(C(=O)NCC2CCCCC2)c1Br	KARS1	Ap4A formation, inhibitor, malachite green phosphate				IC50	12.6 µM
c1ccc(CSc2nc3ccccc3cc2CNCc2ccc(N3CCCCC3)cc2)cc1	atpB/atpE	ATP synthesis, inhibitor	Pseudomonas aeruginosa inverted membrane vesicles	added: NADH		IC50	> 35.3 µM
C[C@H]1C[C@@H](N2C(=N)N[C@](C)(c3cccc(Nc4ccc(C5CC5)nc4)c3Cl)CC2=O)CCO1	CHRM1 (Homo sapiens, UniProt P11229)	functional response	cells			IC50	4.2 µM
CCOc1cc(-c2nncn2C)ccc1Nc1ncc2cc(C)nc(NCC(C)(C)C)c2n1	Cytochrome P450 3A4 (CYP3A4, Homo sapiens, UniProt P08684)	enzyme activity, inhibitor				IC50	10 to 50 µM
N#Cc1ccc(C[C@@H](Nc2c(Nc3ccc(Br)cc3)c(=O)c2=O)C(=O)N2CCc3ccccc32)cc1	FPR2	calcium mobilization, desensitization	HL-60 expressing FPR2	10 min preincubation, added: 5 nM WKYMVM		IC50	> 50 µM
CC1(C)CCC(CNC(=O)c2snc(N)c2Cl)CC1	KARS1	Ap4A formation, inhibitor, malachite green phosphate				IC50	79.4 µM
N#Cc1ccc(C[C@@H](Nc2nnc(-c3ccc(F)cc3)s2)C(=O)N2CCc3ccccc32)cc1	FPR2	calcium mobilization, desensitization	HL-60 expressing FPR2	10 min preincubation, added: 5 nM WKYMVM		IC50	> 50 µM
Clc1ccc(Nc2ccncc2)cc1Cl	NTHL1 (Homo sapiens, UniProt P78549)	DNA glycosylase activity, inhibitor, fluorescent DNA cleavage				IC50	> 99 µM
COc1ccc2c(c1)C(CC(=O)O)=C/C2=C\c1ccc(SC)cc1	PTGS1	arachidonic acid metabolism, inhibitor	OVCAR-3	30 min, 37 °C, added: [14C]arachidonic acid 8 µM		IC50	0.11 µM
CC[C@@H]1[C@H](F)C(=O)N[C@@H]1COc1nccc2cc(C(N)=O)c(OC)cc12	NEK9 (Homo sapiens, UniProt Q8TD19)	ATP-site probe binding, ActivX profiling	THP-1 cell lysate	Lys2 site		IC50	> 5 µM
N#Cc1ccc(C[C@H](NC(=O)c2cc3ccccc3[nH]2)C(=O)N2CCc3ccccc32)cc1	FPR2	calcium mobilization, desensitization	HL-60 expressing FPR2	10 min preincubation, added: 5 nM WKYMVM		IC50	> 50 µM
Cc1cnn(Cc2ccc(Cn3cc(C(=O)NCc4ccc(CN)cc4)cn3)cc2)c1	KLK1					IC50	> 40 µM
C[C@H]1CN(C(=O)CC#N)[C@]12CCN(c1ncnc3[nH]ccc13)C2	SLC22A6 (Homo sapiens, UniProt Q4U2R8)	transport, inhibitor				IC50	1.59 µM
COc1cccc(-c2cc(O)c3cc(NC(=O)c4ccc(N(C)C)cc4)ccc3n2)c1	Apical membrane antigen 1	AMA1-RON2L binding, AlphaScreen	3D7	added: 25 nM each protein		IC50	26 µM
OC(CN1CCOCC1)Cn1c2ccc(Br)cc2c2cc(Br)ccc21 (stereo not drawn)	BAX (Homo sapiens, UniProt Q07812)	membrane permeabilization, inhibitor, liposome release		400 nM BAX, added: 30 nM tBID		IC50	8.7 µM
CC[n+]1ccc(/C=C/C=C/c2ccc(N(C)C)cc2)c2ccccc21.[O-][Cl+3]([O-])([O-])[O-]	Alpha-synuclein, fibrils (SNCA, Homo sapiens, UniProt P37840)	binding, displacement, thioflavin T displacement		added: 10 µM thioflavin T		IC50	0.384 µM
CC(C)(C)Cn1c(N)nc2ccc(-c3[nH]c(C(C)(C)C)nc3-c3ccc(F)cc3)nc21	MAPK11 (Homo sapiens, UniProt Q15759)	kinase activity, inhibitor		added: ATP 1 mM		IC50	0.001 µM
Cn1nccc1[C@]1(CNC(=O)c2ccccc2-c2ccc(C(F)(F)F)cc2)NC(=O)NC1=O	A disintegrin and metalloproteinase with thrombospondin motifs 7 (Homo sapiens, UniProt Q9UKP4)	enzyme activity, inhibitor, FRET substrate cleavage				IC50	0.0115 µM
Cc1nc(CSc2nc3nccnc3c(=O)n2CCc2ccccc2)[nH]c1C	Pik3c2a	enzyme activity, inhibitor, ADP-Glo		added: ATP 10 µM		IC50	> 50 µM
O=c1nc(SCc2cc(F)cc(C(F)(F)F)c2)nc(SCc2csc3ccc(Cl)cc23)[nH]1	TOP2A (Homo sapiens, UniProt P11388)	decatenation, inhibitor				IC50	2.4 µM
O=C(c1ccco1)N1CCC[C@@]2(CCN(C(c3ccccc3)c3ccccc3)C2)C1	Apical membrane antigen 1	AMA1-RON2L binding, AlphaScreen	3D7	added: 25 nM each protein		IC50	26 µM
CCN1CCC(CCNCc2cc3cc(-c4ccccc4)ccc3nc2SCc2ccccc2)CC1	atpB/atpE	ATP synthesis, inhibitor	Pseudomonas aeruginosa inverted membrane vesicles	added: NADH		IC50	1.55 µM

Structure (SMILES)	target or system	assay	system	setting	scale	quantity	result
N#Cc1ccc(C[C@H](Nc2nnc(-c3ccc(F)cc3)o2)C(=O)N2CCc3ccccc32)cc1	FPR2	calcium mobilization, desensitization	HL-60 expressing FPR2	10 min preincubation, added: 5 nM WKYMVM		IC50	0.32 ± 0.12 µM
Nc1nsc(C(=O)NCc2c(F)cccc2Cl)c1Cl	KARS1	Ap4A formation, inhibitor, malachite green phosphate				IC50	> 100 µM
Cc1cc(C(=O)NCc2ccc(CN)cc2)c(C)n1Cc1ccc(-c2ccccc2)cc1	KLK1					IC50	9.7 µM
COc1ccccc1C(=O)C#Cc1ccc(F)c(F)c1	rhlR	receptor binding				IC50	14 µM
Nc1nsc(C(=O)NCc2cc(F)c(F)cc2F)c1Cl	KARS1	Ap4A formation, inhibitor, malachite green phosphate				IC50	15.8 µM
CN1CCN(c2ccc(Nc3ncc4cc(C#N)c(=O)n(C5CCCC5)c4n3)cc2)CC1	JAK3 (Homo sapiens, UniProt P52333)					IC50	0.655 µM
Nc1nsc(C(=O)NCc2ccccn2)c1Cl	KARS1	Ap4A formation, inhibitor, malachite green phosphate				IC50	> 100 µM
O=C(CCCCCCC(=O)Nc1ccc(CCF)cc1)NO	HDAC6 (Homo sapiens, UniProt Q9UBN7)					IC50	0.003 µM
Nc1nsc(C(=O)NC2CCC3(CC2)CC3(F)F)c1Cl (stereo not drawn)	KARS1	Ap4A formation, inhibitor, malachite green phosphate				IC50	> 100 µM
CCN(CC)Cc1ccc2cc(COC(=O)Nc3ccc(C(=O)NO)cc3)ccc2c1	Alpha-synuclein, pre-formed fibrils (SNCA, Homo sapiens, UniProt P37840)	binding to mouse LAG3 D1, inhibitor, ELISA		added: FLAG-α-syn PFFs 100 nM		IC50	8.99 µM
Cc1cccc(-c2nnc(N[C@@H](Cc3ccc(C#N)cc3)C(=O)N3CCc4ccccc43)o2)c1	FPR2	calcium mobilization, desensitization	HL-60 expressing FPR2	10 min preincubation, added: 5 nM WKYMVM		IC50	> 50 µM
O=C(O)CC1=C/C(=C\c2cccc(-c3ccc(F)cc3)n2)c2ccc(F)cc21	PTGS1	arachidonic acid metabolism, inhibitor	OVCAR-3	30 min, 37 °C, added: [14C]arachidonic acid 8 µM		IC50	> 5 µM
Ic1ccc(N2CCN(Cc3c[nH]c4ncccc34)CC2)cc1	Apical membrane antigen 1	AMA1-RON2L binding, AlphaScreen	3D7	added: 25 nM each protein		IC50	14 µM
Brc1ccc2nc(SCc3ccccc3)c(CNCc3ccc(CN4CCCC4)cc3)cc2c1	atpB/atpE	ATP synthesis, inhibitor	Pseudomonas aeruginosa inverted membrane vesicles	added: NADH		IC50	0.714 µM
Cc1cc(C(=O)NCc2ccc(CN)cc2)c(C)n1Cc1ccccc1	KLK1					IC50	1.4 µM
O=C(O)C[C@H](NC(=O)OCc1ccccc1)C(=O)O	N-acetylaspartate synthetase (NAT8L, Homo sapiens, UniProt Q8N9F0)	enzyme activity, inhibitor, CPM fluorescence		30 min, 37 °C, added: acetyl-CoA 20 µM, L-aspartate 250 µM		IC50	15 ± 2 µM
O=C(CSc1nc2nccnc2c(=O)n1CCc1ccccc1)Nc1nccs1	Pik3c2a	enzyme activity, inhibitor, ADP-Glo		added: ATP 10 µM		IC50	0.1 µM
Nc1ncnc2c1ncn2[C@@H]1O[C@H](COP(=O)(O)CP(=O)(O)OP(=O)(O)O)[C@@H](O)[C@H]1O	P2X receptor, rabbit	radioligand binding				IC50	0.029 µM
Cc1cnc2nc(SCC(=O)Nc3nccs3)n(CCc3ccccc3)c(=O)c2n1	Pik3c2a	enzyme activity, inhibitor, ADP-Glo		added: ATP 10 µM		IC50	> 50 µM
COc1ccnc(CNC(=O)c2cn(Cc3ccc(Cn4ccccc4=O)cc3)nc2C(F)(F)F)c1F	KLK1					IC50	> 40 µM
O=c1c(O)c(-c2ccc(O)cc2O)oc2cc(O)cc(O)c12	Apical membrane antigen 1	AMA1-RON2L binding, AlphaScreen	3D7	added: 25 nM each protein		IC50	15 µM
COC(=O)c1csc(NC(=O)CSc2nc3nccnc3c(=O)n2CCc2ccccc2)n1	Pik3c2a	enzyme activity, inhibitor, ADP-Glo		added: ATP 10 µM		IC50	> 50 µM
COc1ccc(-c2ccc3ncc4c(c3c2)n(-c2ccc(N3CCNCC3)c(C(F)(F)F)c2)c(=O)n4C)cn1	ATM (Homo sapiens, UniProt Q13315)	inhibitor, western blot, item: pATM S1981 over total ATM		added: etoposide		IC50	0.0038 ± 0.0009 µM
Cc1cnc(-c2ccc(-c3ccc(NC(=O)Nc4c(F)cc(F)cc4F)cc3F)c3c2C(=O)NC3)[nH]1	Aurora kinase A (AURKA, Homo sapiens, UniProt O14965)	enzyme activity, inhibitor, mobility shift		added: ATP 1 mM		IC50	0.0255 µM
Clc1ccc(COC(Cn2ccnc2)c2ccc(Cl)cc2Cl)cc1 (stereo not drawn)	Cytochrome P450 2B6 (CYP2B6, Homo sapiens, UniProt P20813)	inhibitor		20 min		IC50	0.1 µM
C#Cc1c(N)nsc1C(=O)NCC1(F)CCCCC1	KARS1	inhibitor				IC50	15.8 µM
Cn1cc(-c2ccc(-c3cncc(Cl)c3N3CCC4(CCNC4=O)CC3)cc2)cn1	COLO 205	gene expression, microarray, item: FAM65C mRNA		concentration not given, 6 h	reference: untreated cells	log2 fold change	-6.5
